Measurements of several laboratories.
Lines come from different studies, so protocols differ. Numbers after ± are the reported error.
Cell line: SH-SY5Y

`C=CC1=C(C)c2cc3[n-]c(cc4nc(cc5[n-]c(cc1n2)c(C)c5C=C)C(C)=C4CCC(=O)O)c(CCC(=O)O)c3C.[Zn+2]` has a fold change of 2.01 (RNA-seq, measured: CREB5 mRNA; 5 µM, 5 h; relative to: untreated cells).
With `Cc1c(C)c2c(c(C)c1O)CCC(C)(C(=O)O)O2` (stereo not shown) the inhibition was about 43% (intracellular ROS, DCFH-DA; 20 µM, 24 h pretreatment, together with: TBHP 100 µM; relative to: TBHP alone).
For `CN1CCc2cccc3c2[C@H]1Cc1ccc(O)c(O)c1-3`, the EC50 was 3.2 µM (cytoprotection, FDA/PI staining; together with: 0.8 µM p-tau).
`O=C(O[C@@H]1COC(=O)c2cc(O)c(O)c(O)c2-c2c(cc(O)c(O)c2O)C(=O)O[C@H]1[C@@H]1OC(=O)c2cc(O)c(O)c(O)c2-c2c(O)c(O)c(O)c3c2C(=O)O[C@H]1[C@@H]3O)c1cc(O)c(O)c(O)c1` has a viability of 99.1 ± 1.43% (neuroprotection, MTT; 106.7 µM, 24 h, together with: H2O2 100 µM).
`COc1c(C)c(OCc2ccccc2)c(C)c(O)c1C(=O)/C=C/c1ccccc1` gave a selectivity index of 1.37 (SRB; relative to: normal over SH-SY5Y IC50).
For `Cn1c(Nc2nc3ccc(C(F)(F)F)cc3s2)nc2cc(C(=O)NCCOCCO)ccc21`, the fold change was 2.39 (RNA-seq, measured: RGS3 mRNA; 5 µM, 5 h; relative to: untreated cells).
With `COc1c(C)c(OC(=O)c2ccc(C)cc2)c(C)c(O)c1C(=O)/C=C/c1ccccc1` the selectivity index was 1.63 (SRB; relative to: normal over SH-SY5Y IC50).
`C=Cc1c2[n-]c(c1C)/C=c1\[n-]/c(c(C)c1C=C)=C\c1[n-]c(c(CCC(=O)O)c1C)/C=c1\[n-]c(c(C)c1CCC(=O)O)=C2.[Sn+4]` gave a fold change of 2.4 (RNA-seq, measured: EVA1A mRNA; 5 µM, 5 h; relative to: untreated cells).
With `CCCCCCCCCC(=O)Oc1c(C)c(O)c(C(=O)/C=C/c2ccccc2)c(OC)c1C` the selectivity index was 1.69 (SRB; relative to: normal over SH-SY5Y IC50).
The EC10 of `CN(C)CCCC1(c2ccc(F)cc2)OCc2cc(C#N)ccc21` (stereo not shown) is reported as 6.55 µM (neurite outgrowth inhibition, phase-contrast imaging; freely dissolved concentration).

Excerpt of the above:
`C=Cc1c2[n-]c(c1C)/C=c1\[n-]/c(c(C)c1C=C)=C\c1[n-]c(c(CCC(=O)O)c1C)/C=c1\[n-]c(c(C)c1CCC(=O)O)=C2.[Sn+4]` gave a fold change of 2.4 (RNA-seq, measured: EVA1A mRNA; 5 µM, 5 h; relative to: untreated cells).
`COc1c(C)c(OCc2ccccc2)c(C)c(O)c1C(=O)/C=C/c1ccccc1` gave a selectivity index of 1.37 (SRB; relative to: normal over SH-SY5Y IC50).
